Measurements of several laboratories.
A part holds a random share of what one study measured.

Sample 1
Target: RING finger protein unkempt homolog, zinc fingers 1-6, GST-SBP tag (UNK, Homo sapiens, UniProt Q9C0B0, residues 30-357)
UniProt Q9C0B0, sequence (30-357, looked up): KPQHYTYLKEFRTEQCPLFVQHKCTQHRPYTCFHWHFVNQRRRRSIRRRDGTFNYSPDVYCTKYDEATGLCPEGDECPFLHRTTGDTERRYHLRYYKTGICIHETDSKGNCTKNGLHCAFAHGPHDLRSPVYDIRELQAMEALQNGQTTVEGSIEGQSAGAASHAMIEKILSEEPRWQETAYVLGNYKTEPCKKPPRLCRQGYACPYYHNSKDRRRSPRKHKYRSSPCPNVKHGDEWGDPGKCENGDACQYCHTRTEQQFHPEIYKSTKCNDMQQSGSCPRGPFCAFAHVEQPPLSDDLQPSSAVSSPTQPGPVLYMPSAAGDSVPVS
Method: RNA Bind-n-Seq
Form: RNA
Medium: in vitro
Tested at: not given
Setting: RNA with constant flanks, ends assumed
Reference: input RNA pool
Reading: higher = stronger binding
With `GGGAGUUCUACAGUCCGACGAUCGAGGAAACAGACUAUACUCCCGUUUGGUGCAUGAGACAGGCAGGCCGCUACUUACCAGAGUUCCGGGAAACCAGGGCUGCCCAGGACUUCUUCAGCACCUGCCGAUCUCCCGAGGCUUGCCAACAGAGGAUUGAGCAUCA` the bound/input enrichment was 0.135 ratio.
The bound/input enrichment of `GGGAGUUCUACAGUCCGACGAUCAAGAACUAAUUGCAGAGAUAGGUUCAUUAUCUCUUCAUUGUACCAUAGAUGAGAAGCGGUCCGCUGGCUAUUGUCAAGCAUGUGAUGUUCUUGUACCUUCUUCUGAUAGUACAUCUCAACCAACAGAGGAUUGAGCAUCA` is reported as 0.202 ratio.
`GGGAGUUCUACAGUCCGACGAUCACUGUCCAGGAGGUUCACCCAGGAGAACCUCCGUUCGACUUGGAGCUGUUCUACGUUAAGUACCGAAAUUUUUCCUACUUACAUUGUAAAUGGGCCACAAUGGAAGAGCUCGAAAAGGAUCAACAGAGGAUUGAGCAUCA` gave a bound/input enrichment of 0.198 ratio.
`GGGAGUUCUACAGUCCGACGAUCUCUAGAAUGUCUUCAACUAAAUCAAGUGGAAGUGAAUCAGACAGAUCAGAAAGGCCUGCAUCCGUACGCCAGUCUACUUUCAUCAAAGAAGCCCCAAGCCCAACCCUGAGGAGGAAACUGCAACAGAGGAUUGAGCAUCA` gave a bound/input enrichment of 0.115 ratio.
`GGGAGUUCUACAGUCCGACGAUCGAUCGAACCUGGUCAUUGUGGAAAAAGCAGGAUACAAUCUCACCUGAGUUCGAGCCAGUUUUCCGUCUUUUUGCCUUCACCAACAAAAUUACUUCUGUGCACAGUAGAAUUAUUUGGUCUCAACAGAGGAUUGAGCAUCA` has a bound/input enrichment of 0.844 ratio.
`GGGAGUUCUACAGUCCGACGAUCGAUCAUAAGAAAGAGCUGAGAAAACUCAAUAUGUCUAUACUGAUUAAUUUCUUAGACCUUUCCGACAUCUUAAUAAGAAGUCCUGGGAGUAUAAAACGAGAAGAAAAGCUAGAAGAUCUUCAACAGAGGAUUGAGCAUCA` has a bound/input enrichment of 0.238 ratio.
`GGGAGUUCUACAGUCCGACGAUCUGUUAAUAAAUUAGAAGCUAUUAACUAAACAUACCUAAAUGACACAGCUAAUAAAUGGAUCCGUUUCAUGUUCAUAACAAACUGAAAAAUACAUUACUCCAAGAAAAAGUCUUGAUACUGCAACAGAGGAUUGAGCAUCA` gave a bound/input enrichment of 0.574 ratio.
`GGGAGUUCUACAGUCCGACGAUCCCUCAUAGACCUUAUUAGAUAAUGCUGUUUUCUGGGCUCCUUAACUUCCAAAAUAGCUACCCGUUUCCAUUUUUGGUUACAUUGUGAACUAUUUCCAUAUUCCUCUUAACAUGCUAUUUUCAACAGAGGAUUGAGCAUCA` gave a bound/input enrichment of 10 ratio.
The bound/input enrichment of `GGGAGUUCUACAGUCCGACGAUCACAGAAAAUAGCAGCGCAGUGUUACUCCAGUGGCACGAAAAGGCCUUAGCAGUAGGAGGACCCGGCUCCAUUAUAAGAGUUCUUACAGCAAGAAAGACUGUUUAAAAAAAAUAAAAAGACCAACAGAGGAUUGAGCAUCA` is reported as 0.47 ratio.
`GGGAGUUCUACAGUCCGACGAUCGAAACAUUUAAAUUUAAAGAAGCUGUUGUUCUAGGAAGUACGGACUUUCUAGAAGAUGAUACCGAGAAAAUUGUAGAAGAACUGGGGAAAGAGUAUAAGGGCAACGCCUACCAUCUGAUGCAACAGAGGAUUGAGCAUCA` gave a bound/input enrichment of 0.636 ratio.
`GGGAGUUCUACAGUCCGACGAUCCAUAUUGUAUGUAGAGAAAAAUUUUCAUUGACUCCCAUUGUGGAAUUCCCUAGCAAUUUAUUCCGACUUAAUUUUUUAAAUUCAAGCUUACUGUAUUAGUCAUUUUUAGCCCAUAAUUAACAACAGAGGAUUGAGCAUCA` has a bound/input enrichment of 187 ratio.

Sample 2
Target: Histone acetyltransferase KAT6A, both winged helices, GST fusion (KAT6A, Homo sapiens, UniProt Q92794, residues 1-181)
Method: protein binding microarray
Form: double-stranded DNA, one strand shown
Medium: in vitro
Tested at: not given
Setting: 8-mer, flanks averaged, mean of 2 arrays, mostly near background
Reference: not given
Reading: higher = stronger binding
Residues (chain): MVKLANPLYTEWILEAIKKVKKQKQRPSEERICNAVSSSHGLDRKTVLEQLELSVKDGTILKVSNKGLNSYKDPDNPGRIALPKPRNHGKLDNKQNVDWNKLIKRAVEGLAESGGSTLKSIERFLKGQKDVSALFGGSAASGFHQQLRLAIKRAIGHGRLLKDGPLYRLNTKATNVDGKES
`GACAACCA` gave an E-score of -0.0625.
`CATCTAAC` gave an E-score of -0.045.
`CCTCGGCA` has an E-score of 0.187.
`GACGTAGA` has an E-score of -0.066.
The E-score of `GTCATGCA` is reported as -0.0874.
For `ATAAGCCG`, the E-score was 0.0881.
`AGACGCCT` has an E-score of -0.00235.
With `AAGAACGT` the E-score was 0.149.
`AAAAAATT` gave an E-score of -0.0511.
`TAGTTCAA` gave an E-score of -0.127.
`ACATGGCC` has an E-score of -0.0568.
With `CGATTACC` the E-score was 0.113.
For `ATGTCGCG`, the E-score was 0.285.
With `ACGAAAAG` the E-score was -0.000515.
The E-score of `GCGAGGAA` is reported as 0.139.
For `CTACTCCA`, the E-score was -0.152.
With `ACCTCCGG` the E-score was 0.0326.
The E-score of `AACGTATA` is reported as 0.0636.
The E-score of `TAACACTA` is reported as 0.00819.
For `TTATAGAA`, the E-score was -0.0681.
With `CGCCTAGA` the E-score was 0.185.
`CTAGGAAC` gave an E-score of -0.15.
`ATCGATGC` gave an E-score of 0.0293.
The E-score of `CGAGGTAG` is reported as -0.00272.
The E-score of `CCAGAGAG` is reported as -0.28.

Sample 3
Target: Prothrombin, mature alpha-thrombin (F2, Homo sapiens, UniProt P00734)
Method: aptamer microarray, sandwich
Form: DNA with 2'F-ANA
Medium: in vitro
Tested at: 200 nM
Setting: whole 15-mer aptamer, many near background
Added: Cy3 exosite-II aptamer, 400 nM
Reading: higher = stronger binding
Strand: GGTTGGTGTGGTTGG
Under “mean fluorescence intensity”, `2'F-ANA at 2 3 5 6 9 12 13 14` is recorded as 56.2 a.u.
`2'F-ANA at 1 3 6 7 8 9 11 12 13 15`: “mean fluorescence intensity” 357 a.u.
`2'F-ANA at 1 8 12 14`: “mean fluorescence intensity” 79.4 a.u.
Under “mean fluorescence intensity”, `2'F-ANA at 1 2 3 5 6 10 11 14 15` is recorded as 49 a.u.
`2'F-ANA at 1 3 4 7 13 14 15` — result for “mean fluorescence intensity”: 70.9 a.u.
`2'F-ANA at 1 2 3 4 5 6 8 10 11 15` — result for “mean fluorescence intensity”: 47 a.u.
Under “mean fluorescence intensity”, `2'F-ANA at 2 5 10 12 14 15` is recorded as 45.3 a.u.
`2'F-ANA at 2 3 4 5 6 13 15`: “mean fluorescence intensity” 72.4 a.u.
Under “mean fluorescence intensity”, `2'F-ANA at 1 2 7 8 12` is recorded as 441 a.u.
Under “mean fluorescence intensity”, `2'F-ANA at 4 5 7 8 9 10 12 13 14 15` is recorded as 67.9 a.u.
`2'F-ANA at 4 5 6 7 10 11 12 13 14 15`: “mean fluorescence intensity” 49.6 a.u.
For `2'F-ANA at 1 2 4 5 6 8 15`, “mean fluorescence intensity” read 64.3 a.u.
`2'F-ANA at 2 4 5 6 8 11 13 15`: “mean fluorescence intensity” 70.4 a.u.
Under “mean fluorescence intensity”, `2'F-ANA at 1 2 3 4 5 6 7 9` is recorded as 63.8 a.u.
Under “mean fluorescence intensity”, `2'F-ANA at 2 3 4 5 6 10 11 14 15` is recorded as 51 a.u.
Under “mean fluorescence intensity”, `2'F-ANA at 1 3 4 5 6 7 8 9 10 13` is recorded as 98.6 a.u.
Under “mean fluorescence intensity”, `2'F-ANA at 2 6 7 11 15` is recorded as 274 a.u.

Sample 4
Target: RNA binding protein fox-1 homolog 2, RRM domain, GST-SBP tag (RBFOX2, Homo sapiens, UniProt O43251-10, residues 100-194)
Method: RNA Bind-n-Seq
Form: RNA
Medium: in vitro
Tested at: 365 nM
Setting: natural RNA segment, single round, ends assumed
Reference: no-protein control
Reading: higher = stronger binding
Target sequence (chain): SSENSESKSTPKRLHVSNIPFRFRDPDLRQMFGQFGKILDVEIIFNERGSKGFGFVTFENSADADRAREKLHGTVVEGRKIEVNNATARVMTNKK
For `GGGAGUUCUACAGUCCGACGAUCCAGACUCAAAGUUACUCUCCUUCCCCCUACCUGGGCCAGUGAAAUAGAAAGCCUUUCUAUUUUUUGGUGCGGGAGGGAAGACCUCUCACUUAGGGCAAGAGCCAGGUAUAUGGAAUUCUCGGGUGCCAA`, “RBNS enrichment (R)” read 0.245.
`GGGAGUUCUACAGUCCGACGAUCAGUAAUUACAGGUUAUAUACAGUAUACUGCUUUAGAGAGAAUUUGUUAAUUUGCUUGGUAUUUUCAUCAGAAUAUUACAUGACCUGGAAAGUUAAGUGGUUUUCAGUUCAUGGAAUUCUCGGGUGCCAA` — result for “RBNS enrichment (R)”: 0.765.
`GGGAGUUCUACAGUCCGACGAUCUAGCUUUGUUUGGAAGCCUUUCUGGUGGUGGUUUUUGUUGUUGUUGUUGUUUUGUUGUUUUACUAUAUGUAAUACAAGCCUACAGUAUUUGCACUAAAGAAAGCUUGUUAUGGAAUUCUCGGGUGCCAA`: “RBNS enrichment (R)” 1.77.
`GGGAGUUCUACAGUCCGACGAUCGUGAGAGCAGAACCCCCAUUCCCCAGCCUCUGCUGGUAGCAUGUCGCAGUUUCCAUGUGUUUCAGGAUCUUCGGGCUGUCGUUAGACAGGUUAAUGAAGAACACUUCUCAUGGAAUUCUCGGGUGCCAA`: “RBNS enrichment (R)” 1.15.
Under “RBNS enrichment (R)”, `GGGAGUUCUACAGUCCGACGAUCUUGACGCAUCAUCCUGUGAUGUUGAAAUGUCAAUUGCAGGAUGCUGAUGUUGUGCACGUCAAUCACCGGGCACUUGCAUACUCUUAGAAACAGUUCGACUUCGGUUACUGUGGAAUUCUCGGGUGCCAA` is recorded as 1.19.
Under “RBNS enrichment (R)”, `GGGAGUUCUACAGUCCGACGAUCUCAGGUGAGGUCGCUACCCCUGGAGGUCUGGCAUAAGGGCCCCACCCUCAGGUCUCCUACACUGGCCCCAUUUUACUUUGGGGUCCAAGGACAGGAUGGUCAACAGGGCAUGGAAUUCUCGGGUGCCAA` is recorded as 0.242.
`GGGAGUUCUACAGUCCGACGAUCUGAACCGCACUGGAGAAAAGGGGCAAGGUACCCCUGCUGAGGUGUAUGGGCUGCCAUCUCAGGCUGUCUUGAGGACCUGGGCUCCCUCUGCUACUCCCAGGAAAUGGGCUUGGAAUUCUCGGGUGCCAA` — result for “RBNS enrichment (R)”: 0.466.
For `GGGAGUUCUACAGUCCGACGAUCGAAGCCUGUGCACAAGUAGCAUGGGCACCUGGAAAACUUGAACCUGGAAGGAAAGAUUCCCAGCAUGCAGUGCUCUCUCCUCCAGGGAGGAGAAUGUGUGCUGGGCUAUGUGGAAUUCUCGGGUGCCAA`, “RBNS enrichment (R)” read 0.421.
`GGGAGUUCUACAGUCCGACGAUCAUCAUGUUGUCUGUGUUGUGUUAUGUGAGAAUUUUCUCCUAAGUCAUGCAGGUAAUGACAAUAUACUGUAAAUACCACAUGUGAGUUUACCUGAAUCUGUGCAUUUUGUGUGGAAUUCUCGGGUGCCAA` — result for “RBNS enrichment (R)”: 0.767.
Under “RBNS enrichment (R)”, `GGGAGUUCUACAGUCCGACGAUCACAUUUCUGGAAUGUGUGUACCCUGCUGGUGACUUUGCAGCCCCGCCUUGCCUGACCUCCCACCCUAGUGGCCACCGGGAAGGCUGAAGGGAGUGGACACCACAGGAAGAUGGAAUUCUCGGGUGCCAA` is recorded as 0.35.
Under “RBNS enrichment (R)”, `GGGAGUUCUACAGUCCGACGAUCUGAGAUAGAUAGAUGGCAGAUAGAACAACAGACAGACAGAAGACAGGUAGGCAGCAGACAGACAGAUGACAGAUAGAUCUCCAUGGUAUGUUUUCCAUUUUCUUUUGUCAUGGAAUUCUCGGGUGCCAA` is recorded as 0.807.
Under “RBNS enrichment (R)”, `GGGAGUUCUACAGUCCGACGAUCGGAAGCAGUGAGCAAAACCUGUGGUUAUUAACGGAAAAGUCUUUUAUUACAAAGUCAAUUAAAACUUUUCAUUCAAGGUUUUUGAGCCAAACUAGAAGUUGAGAUUGUAAUGGAAUUCUCGGGUGCCAA` is recorded as 0.378.

Repeated from above (sample 2):
The E-score of `AACGTATA` is reported as 0.0636.
The E-score of `TAACACTA` is reported as 0.00819.
For `TTATAGAA`, the E-score was -0.0681.
With `CGCCTAGA` the E-score was 0.185.
`CTAGGAAC` gave an E-score of -0.15.
`ATCGATGC` gave an E-score of 0.0293.
